Measurements from different studies.
Values joined by “and” are separate records of one study, mostly repeats; a detail may differ. ± gives the spread as reported.
USP13 ZnF-UBD domain: Ubiquitin carboxyl-terminal hydrolase 13, ZnF-UBD domain (USP13, Homo sapiens, UniProt Q92995)
Chain of UniProt Q92995 (whole entry, looked up): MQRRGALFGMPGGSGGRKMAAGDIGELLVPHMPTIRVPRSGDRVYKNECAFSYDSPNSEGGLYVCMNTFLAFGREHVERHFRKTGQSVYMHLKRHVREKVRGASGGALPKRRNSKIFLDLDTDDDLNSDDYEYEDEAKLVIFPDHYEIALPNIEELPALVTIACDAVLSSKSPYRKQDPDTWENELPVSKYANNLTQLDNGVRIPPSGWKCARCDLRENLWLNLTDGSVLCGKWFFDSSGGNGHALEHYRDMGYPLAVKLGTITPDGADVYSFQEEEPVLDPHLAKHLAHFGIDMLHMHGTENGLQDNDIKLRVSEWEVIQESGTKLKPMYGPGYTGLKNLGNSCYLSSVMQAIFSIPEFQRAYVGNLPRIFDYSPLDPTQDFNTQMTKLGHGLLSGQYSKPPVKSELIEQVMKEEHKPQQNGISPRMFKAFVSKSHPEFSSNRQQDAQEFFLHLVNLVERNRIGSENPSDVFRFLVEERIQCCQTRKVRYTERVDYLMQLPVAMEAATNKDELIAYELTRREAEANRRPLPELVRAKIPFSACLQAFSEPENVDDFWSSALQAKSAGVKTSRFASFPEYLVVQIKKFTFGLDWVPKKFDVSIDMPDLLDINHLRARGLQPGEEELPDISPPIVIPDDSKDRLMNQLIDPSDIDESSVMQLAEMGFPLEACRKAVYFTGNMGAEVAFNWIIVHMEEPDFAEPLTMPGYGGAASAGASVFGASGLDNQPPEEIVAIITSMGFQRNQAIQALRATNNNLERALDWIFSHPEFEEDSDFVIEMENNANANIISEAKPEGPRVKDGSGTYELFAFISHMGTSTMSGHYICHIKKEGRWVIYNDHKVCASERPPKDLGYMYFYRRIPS

C=CCn1c(=O)c2cnc(Nc3ccc(N4CCN(C)CC4)cc3)nc2n1-c1ccc2c(n1)[C@@](O)(CC)CC2 — tumour growth inhibition (MIA PaCa-2, BALB/c nude mice, xenograft; oral, 80 mg/kg once daily, day 28; reference: vehicle): 32.6%
COc1cc2cc(-c3ccc(CC(=O)Nc4cc(C(C)(C)C(F)(F)F)no4)cn3)cnc2cc1OC — partial response as best response (RECIST v1.1; RET-altered advanced solid tumour patients; oral, 20 mg once daily, phase I): 0%
CC(=O)Oc1cc2c(s1)CCN(C(C(=O)C1CC1)c1ccccc1F)C2 (centres unmarked) — patients with IPA above 90% (light transmittance aggregometry; human patients, platelet-rich plasma; dose not given, 1 h, with: ADP 20 µM; reference: patients): 0%
c1ccc(-c2n[nH]cc2-c2ccnc3ccccc23)nc1 — log2 fold change (kinase binding, competitor, MIB/MS competition, item: PBS2; Candida albicans cell lysate; 100 nM; reference: DMSO): 1.24
CCN1CCN(Cc2ccc(Nc3ncc(F)c(-c4cc(F)c5nc6n(c5c4)[C@H](C)CCC6)n3)nc2)CC1 — not evaluable tumour response (Phase Ia, RECIST v1.1; patients with advanced solid tumours; dose not given, monotherapy, all doses): 0%
COc1cc2nccc(Oc3ccc(NC(=O)C4(C(=O)Nc5ccc(F)cc5)CC4)cc3)c2cc1OC — partial response rate (Kaposi sarcoma patients; 60 mg daily, 5 of sample A patients): 26%
Oc1cc2c(cc1O)C(CCc1ccccc1)NCC2 (centres unmarked) — Fe2+ chelation (ferrozine; cell-free; 100 µM, DMSO solvent): 90.3 ± 0.95%
COc1cc(-c2ccccc2)ncc1C(=O)Nc1ccc2c(=O)[nH]c(-c3ccc(C(C)(C)O)cc3)nc2c1 — normalized enrichment score (RNA-seq GSEA, item: HALLMARK_BILE_ACID_METABOLISM; organoids, small intestinal, Apc Q1405X, mouse; dose not given, 3 days, knockout organoids; reference: DMSO, direction not given): 1.83
CCOc1c([C@H](C)n2nc(C)c3c(N)ncnc32)cc(Cl)c(F)c1[C@@H]1CNC(=O)C1 — plasma protein level change (Olink proximity extension proteomics, item: TNFRSF6B; human FL or MZL patients, plasma; dose not given, week 8; reference: baseline): -36%
N#Cc1ccc2c(c1)[C@H]1CCCN(C(=O)c3ccc4[nH]cnc4c3)[C@H]1C2 — total urinary corticosteroid excretion (T2DM patients with overweight or obesity, urine; oral, 20 mg, day 1, 0-24 h, multiple dosing, adjusted geometric mean; reference: baseline day -1, -24-0 h): 158%
N#Cc1ccc2c(c1)[C@H]1CCCN(C(=O)c3ccc4[nH]cnc4c3)[C@H]1C2 — 1,5-anhydroglucitol change from baseline (human clinical trial; oral, 240 mg once daily, 28 d): -0.1 mg/L
N[C@@H](CC(=O)N1CCn2c(nnc2C(F)(F)F)C1)Cc1cc(F)c(F)cc1F — total cholesterol (type 2 diabetes patients on metformin, fasting plasma; oral, 100 mg once daily, 28 weeks): 188 mg/dL
Cn1cc(Nc2nccc(-c3ccc4c(c3)CN(C3COC3)CC[C@H]4NC(=O)c3cn(C(C)(C)C)nn3)n2)cn1 — pathway activation z-score (item: interactions, ligand-receptor, VEGF family; splenic B cells, mice; 30 mg/kg, IgD-activated in vivo; reference: vehicle, direction not given): 2.11
Fc1ccc2c(c1)C#Cc1ccc(F)cc1C#C2 — second-order rate constant (UV spectroscopy; methanol; room temperature, with: benzyl azide): 0.0457 M⁻¹ s⁻¹ and 0.0487 M⁻¹ s⁻¹
Cc1cnc(N2CC3(CCOCC3)C2)c(C(=O)Nc2ccc(C(=O)N3CCc4cc(C(=O)Nc5c(C)cccc5F)sc4-c4ccccc43)cc2)c1 — inhibition (item: RANTES; human RSV infection, nasal wash; dose not given, AUC, ITT-IS population; reference: placebo): 36%
CN[C@@H]1COc2c(S(=O)(=O)NC(=O)Nc3c4c(cc5c3CCC5)CCC4)cnn2C1 — inhibition (item: IL-1β; human participants, whole blood ex vivo; 450 mg single dose, 336 h, with: LPS/ATP; reference: baseline): -11.1%
Cc1nn(-c2nc3c(F)cc(F)cc3s2)c(O)c1C(c1ccc(C(F)(F)F)cc1)c1c(C)nn(-c2nc3c(F)cc(F)cc3s2)c1O — histology score (item: parenchymal necrosis; mouse, cerulein-induced acute pancreatitis; 25 mg/kg; direction not given): 0 and 3
CC1(C)CCC2(CC1)N[C@@H](C(=O)N[C@@H]1CC[C@@H](C(N)=O)OC1)[C@H](c1ccnc(Cl)c1F)[C@]21C(=O)Nc2cc(Cl)ccc21 — stable disease (human, solid tumours; 90 mg/day, RECIST; reference: patients): 50%
C[C@H](NC(=O)c1c(C(F)F)nn(C)c1Oc1cccc(C(F)(F)F)c1)c1ccc(C(=O)O)cc1 — stable disease (irRECIST; human, advanced tumours; 750 mg; best overall response): 42.9%
CC(C)[C@H](C(=O)Nc1ccc(C(=O)NO)cc1)c1ccccc1 — tumour volume (volumetric MRI; human, right vagal schwannoma; dose not given, day 995): 9.8 cm3
CCCCCCCCC1NCCc2cc(O)c(O)cc21 (centres unmarked) — Fe2+ chelation (ferrozine; cell-free; 100 µM, DMSO solvent): 30.7 ± 1.66%
NC1(C(=O)N[C@@H](CCO)c2ccc(Cl)cc2)CCN(c2nc[nH]c3nccc2-3)CC1 — CTC conversion response rate (human mCRPC patients; dose not given, includes non-confirmed conversions, with: enzalutamide): 37.5%
C[C@@H](NC(=O)N1C(=O)[C@H](Cc2ccnc(N)c2)[C@H]1C(=O)O)C1CCCCC1 — time to ACT Emax (human; iv infusion, 0.6 mg/kg/h, 24 h; reference: baseline): 83.8 h
NC(=O)c1cnc2[nH]ccc2c1N[C@@H]1[C@@H]2CC3C[C@H]1C[C@@](O)(C3)C2 — total memory T-cell change (flow cytometry; Japanese healthy men, blood; oral, 60 mg single dose, 24 h; reference: baseline): 0.83%
O=C(NCc1ccc(CNS(=O)(=O)c2ccccc2)cc1)c1ccccc1Cl — ear edema (xylene-induced ear edema; mouse; intraperitoneal, 10 mg/kg): no effect
NCC(=O)Nc1cncc(-c2nn3c(=O)cc(N4CCNCC4)nc3s2)c1 — inhibition (ADP-induced platelet aggregation, light transmission aggregometry; human, stable CAD on aspirin, platelets ex vivo; subcutaneous, 0.075 mg/kg, 15 min post-dose, with: ADP 20 µM): 88.9%
CN(C)C(=O)c1cc2cnc(Nc3ccc(N4CCNCC4)cn3)nc2n1C1CCCC1 — GSEA enrichment score (RNA-seq GSEA, item: HALLMARK_DNA_REPAIR; MB002 tumour; concentration not given, in vivo; reference: vehicle, direction not given): 0.409
COc1cc2oc(=O)cc(C)c2cc1CCC(=O)O — Kd (USP13 ZnF-UBD domain): 867 µM
O=C1Nc2cc3[nH]nc(-c4ccncc4)c3cc2CN1Cc1ccccc1 — progressive disease, best response (RECIST v1.1; human, relapsed or refractory advanced solid tumours; intravenous, 0.45 mg/kg, pooled schedules): 100%
C[C@H](Oc1ccc(Br)cc1-c1ccon1)C(=O)O — difference from placebo (last response peak; human, tibialis anterior muscle; 400 mg, 30 Hz, single ascending dose): 12.1%
O=C(O)CCC(=O)N1CCc2ccccc21 — Kd (USP13 ZnF-UBD domain): 294 µM
OC(CCN1CCCCC1)(c1ccccc1)C1CC2C=CC1C2 (centres unmarked) — EEG power, alpha, Fz-Cz (resting-state EEG; healthy elderly humans; oral, 4 mg, eyes open, LS mean): 4 µV²
CCOC(=O)c1c(NC(=O)CNC(C)C)sc2c1CCCCC2 — epileptiform spike rate (APP J20 mice; intraperitoneal, 50 mg/kg, first 2 h, NREM sleep): 90.5 ± 16.8 spikes/h
N#Cc1ccc2c(-c3ccncc3)c(-c3ccc(F)cc3)nn2c1 — log2 fold change (kinase binding, competitor, MIB/MS competition, item: IKS1; Candida albicans cell lysate; 1 µM; reference: DMSO): -0.162
CN(C(=O)n1cnc(-c2ccc[n+]([O-])c2)c1)C1CCCCC1 — change in licking score (mice, formalin paw test; 0.3 mg/kg, late phase, with: anandamide 5 mg/kg i.p.; reference: anandamide alone, direction not given): -42%
C[C@H]1C[C@H]2CSC(N)=N[C@@]2(c2nc(NC(=O)c3ccc(OC(F)F)cn3)cs2)CO1 — total plasma Aβ change (healthy adults, fed, plasma; oral, 200 mg single dose, 8 h; reference: baseline, placebo-adjusted): -56.4%
N[C@H](C(=O)O)c1cc(O)cc(O)c1 — population spike amplitude (field recording; rat hippocampal slice CA3; 50 µM, 10 min; reference: baseline): 126 ± 17.2%
CN(C)C(=O)Oc1cccc([N+](C)(C)C)c1 — train-of-four ratio (neuromuscular block reversal; rat; dose not given, 17.5 (unit not given), with: cisatracurium; reference: T1 twitch): 96.9
COc1ccccc1[C@H](Cn1c(=O)n(C(C)(C)C(=O)O)c(=O)c2c(C)c(-c3ncco3)sc21)OC1CCOCC1 — fractional hepatic DNL ([1-13C]acetate infusion, isotopomer analysis; overweight or obese healthy men, plasma VLDL-TG palmitate; oral, 20 mg single dose, 1 h post-dose, with: oral fructose): 7.56 % new palmitate
CC(C)NCC(O)c1ccc(O)c(O)c1 (centres unmarked) — sarcomere length (ventricular cardiomyocytes, C57BL/6 mouse; dose not given, 0.796 s): 1.65 µm
Cn1cc(-c2ccc(-c3cncc(Cl)c3N3CCC4(CCNC4=O)CC3)cc2)cn1 — log2 fold change (COLO 205; gene expression, microarray, item: FHL2 mRNA; concentration not given, 6 h; reference: untreated cells): 1.3
O=C(O)CNC(=O)Cc1ccccc1 — sarcomere length (ventricular cardiomyocytes, C57BL/6 mouse; dose not given, 0.828 s): 1.64 µm
Cc1n[nH]c2ccc(-c3cc(OC[C@@H](N)Cc4ccccc4)cnc3-c3ccoc3)cc12 — log2 fold change (kinase binding, competitor, MIB/MS competition, item: YCK2; Candida albicans cell lysate; 1 µM; reference: DMSO): -1.75
Nc1nc2cc(-c3ccc4ncc(C(=O)N5CCOCC5)n4c3)ccc2o1 — partial response duration (RECIST v1.1; advanced solid tumour patients; dose not given, range over): 3.6 to 12.2 months
C[C@@H]1Cc2c([nH]c3ccccc23)[C@@H](c2c(F)cc(/C=C/C(=O)O)cc2F)N1CC(C)(C)F — uterine weight (ER agonist activity; immature rat; oral, 10 mg/kg daily x3): 51 mg
O=C(OC(C(F)(F)F)C(F)(F)F)N1CCN(Cc2cccc(Oc3ccccc3)c2)CC1 — tracer distribution volume (PET; rhesus monkey, striatum; intravenous, 0.3 mg/kg, pretreatment blocking, with: [18F]T-401): 1.4 mL/cm3
CC[C@@H]1[C@H](F)C(=O)N[C@@H]1COc1nccc2cc(C(N)=O)c(OC)cc12 — inhibition (ATP-site probe binding, ActivX profiling, item: MST4, YSK1; THP-1 cell lysate; 0.01 mM, Lys2 site): 19.6%
